# Earlier results, collected from citations in different studies.
# Protocols differ between the studies behind these lines.
# UniProt P00698, sequence (whole entry, looked up): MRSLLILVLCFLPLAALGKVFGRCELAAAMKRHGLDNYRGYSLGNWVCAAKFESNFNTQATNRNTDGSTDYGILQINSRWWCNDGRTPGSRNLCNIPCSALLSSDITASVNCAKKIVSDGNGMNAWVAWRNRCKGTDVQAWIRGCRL
# UniProt P0AES9, sequence (whole entry, looked up): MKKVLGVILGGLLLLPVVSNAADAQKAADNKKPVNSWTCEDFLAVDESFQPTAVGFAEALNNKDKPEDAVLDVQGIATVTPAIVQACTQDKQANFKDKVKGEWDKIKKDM
# UniProt P41149, sequence (whole entry, looked up): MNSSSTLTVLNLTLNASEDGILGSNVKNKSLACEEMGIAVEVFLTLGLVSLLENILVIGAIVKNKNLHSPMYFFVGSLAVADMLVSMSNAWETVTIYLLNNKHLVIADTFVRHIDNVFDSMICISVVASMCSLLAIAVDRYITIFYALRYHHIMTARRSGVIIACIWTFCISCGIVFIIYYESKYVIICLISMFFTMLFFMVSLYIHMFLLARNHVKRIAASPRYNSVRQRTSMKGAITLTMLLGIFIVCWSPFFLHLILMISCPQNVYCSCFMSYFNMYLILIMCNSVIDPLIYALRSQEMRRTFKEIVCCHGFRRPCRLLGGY
Molecule,target or system,assay,test system,conditions,endpoint,value
insulin glulisine,,measured: total insulin,human,"subcutaneous upper arm, 0.2 U/kg, dose-adjusted from 0.1 U/kg",AUC,2.12 nM·h
"LYZ (Gallus gallus, UniProt P00698)",,"NMR, measured: His15",,"NaCl 100 mM, numbering of the source",pKa,5.5
"hdeA mature protein (Escherichia coli, UniProt P0AES9)",,"NMR, measured: Asp76",,"298 K, numbering of the source",pKa,3.75
CVRLHESCLGQQVPCCDPCATCYCRFFNAFCYCR (agouti-related protein (87–120); sequence looked up),"Melanocortin receptor 5 (Mus musculus, UniProt P41149)","reporter gene, agonist, beta-galactosidase reporter",peptide,,EC50,> 100 µM

# A few entries again:
Molecule,target or system,assay,test system,conditions,endpoint,value
CVRLHESCLGQQVPCCDPCATCYCRFFNAFCYCR (agouti-related protein (87–120); sequence looked up),"Melanocortin receptor 5 (Mus musculus, UniProt P41149)","reporter gene, agonist, beta-galactosidase reporter",peptide,,EC50,> 100 µM
